Measurements of several laboratories.
Parts stem from different laboratories: compare values within a part only.

Block 1
Target: TAR DNA-binding protein 43, full length, His tag (TARDBP, Homo sapiens, UniProt Q13148, residues 1-414)
Technique: RNA Bind-n-Seq
Form: RNA
Sample: in vitro
Concentration: 20 nM
Setting: 6-mer, flanks averaged, single round
With: 150 mM LiCl
Reference: input library
Reading: higher = stronger binding
Strand | 6-mer enrichment (R)
GAGAGU | 1.12
GCCUGG | 1.01
GAAAAU | 0.881
GCAACC | 0.871
UUAAGC | 0.919

Block 2
Target: Sal-like protein 4, full length isoform A (SALL4, Homo sapiens, UniProt Q9UJQ4, residues 1-1053)
UniProt Q9UJQ4, sequence (whole entry, looked up): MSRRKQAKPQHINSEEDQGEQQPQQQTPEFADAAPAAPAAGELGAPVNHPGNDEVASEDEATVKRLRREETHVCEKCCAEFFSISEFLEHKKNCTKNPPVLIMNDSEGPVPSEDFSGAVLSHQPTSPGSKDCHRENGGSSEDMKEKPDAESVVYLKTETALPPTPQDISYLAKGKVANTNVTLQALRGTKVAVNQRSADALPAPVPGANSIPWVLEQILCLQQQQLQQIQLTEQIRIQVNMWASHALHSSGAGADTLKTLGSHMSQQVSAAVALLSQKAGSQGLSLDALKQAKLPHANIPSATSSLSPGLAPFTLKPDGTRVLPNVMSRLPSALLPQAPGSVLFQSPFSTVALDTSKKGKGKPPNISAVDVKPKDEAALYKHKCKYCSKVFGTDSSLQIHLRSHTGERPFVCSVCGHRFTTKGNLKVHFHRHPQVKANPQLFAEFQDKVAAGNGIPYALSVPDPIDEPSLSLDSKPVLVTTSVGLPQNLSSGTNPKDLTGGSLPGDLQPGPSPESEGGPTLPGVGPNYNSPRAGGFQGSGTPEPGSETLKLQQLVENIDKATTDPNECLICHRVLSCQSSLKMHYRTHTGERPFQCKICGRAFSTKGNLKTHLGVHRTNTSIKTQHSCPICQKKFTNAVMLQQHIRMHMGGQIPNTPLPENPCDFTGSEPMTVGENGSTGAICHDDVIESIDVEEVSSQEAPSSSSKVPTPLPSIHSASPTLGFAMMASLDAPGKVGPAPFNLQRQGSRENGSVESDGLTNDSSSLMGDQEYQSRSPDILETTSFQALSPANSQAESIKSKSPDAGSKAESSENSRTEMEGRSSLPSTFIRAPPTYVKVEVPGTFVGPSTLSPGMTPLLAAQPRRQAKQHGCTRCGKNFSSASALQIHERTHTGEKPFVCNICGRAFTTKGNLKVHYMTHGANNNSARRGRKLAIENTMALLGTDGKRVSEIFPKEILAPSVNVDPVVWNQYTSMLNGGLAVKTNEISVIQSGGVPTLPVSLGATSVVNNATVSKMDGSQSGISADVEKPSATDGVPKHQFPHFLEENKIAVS
Technique: universal PBM
Form: double-stranded DNA, one strand shown
Sample: in vitro
Concentration: 600 nM
Setting: 8-mer, flanks averaged, mean of replicates
Reading: higher = stronger binding
Strand | E-score
ACTGAGAC | -0.047
AAAGCGCC | -0.122
CACCCGTA | -0.224
ATCACCCC | -0.0508
ACGTTTCT | 0.0614
CCGACTGA | -0.14
CTATCTTC | 0.202

Block 3
Target: Prothrombin, mature alpha-thrombin (F2, Homo sapiens, UniProt P00734)
Technique: aptamer microarray, sandwich
Form: DNA with 2'F-ANA
Sample: in vitro
Concentration: 200 nM
Setting: whole 15-mer aptamer, many near background
With: Cy3 exosite-II aptamer, 400 nM
Reading: higher = stronger binding
Strand: GGTTGGTGTGGTTGG
Modification | mean fluorescence intensity [a.u.]
2'F-ANA at 2 3 4 5 6 8 9 10 11 12 14 15 | 55.1
2'F-ANA at 2 3 4 5 7 8 9 10 11 12 15 | 59.4
2'F-ANA at 4 5 6 7 8 11 15 | 57.4
2'F-ANA at 2 4 6 7 8 9 10 11 12 14 | 59.1
2'F-ANA at 3 4 6 8 13 14 15 | 247

Mixed results
Molecule | target | test | test system | conditions | scale | endpoint | value
PhoQ, residues 284 288 289 292 302 303 SSYNSA | PhoP, residues 12 14 15 18 19 NHFRA (Escherichia coli, UniProt P23836) | Sort-seq, item: YFP reporter | E. coli | PhoQ-PhoP variant library, with: 10 µM Mg2+ | reference: high Mg2+ state, higher = stronger signaling | fold induction | 3.08
